Published values from different studies.
Parts stem from different laboratories: compare values within a part only. Changes are numbered by the printed parent chain.

Study 1 — method: DHFR PCA, deep sequencing; matrix: yeast; together with: (+)-ABA 17 µM; reference: wild-type fitted maximum; reading: higher = stronger binding
Target: ABI1, truncated, D143A, DHFR fusion (Arabidopsis thaliana)
Setting: methotrexate growth selection, single substitutions
Starting sequence: PYL1, truncated, DHFR fusion (Arabidopsis thaliana); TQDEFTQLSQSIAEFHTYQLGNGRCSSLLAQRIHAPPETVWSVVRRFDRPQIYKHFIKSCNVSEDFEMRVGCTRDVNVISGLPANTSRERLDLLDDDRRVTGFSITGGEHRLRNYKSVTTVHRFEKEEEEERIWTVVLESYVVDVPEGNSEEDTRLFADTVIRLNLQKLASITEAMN
| Substitution | relative binding score [%] |
| --- | --- |
| S150P | 4.7 |
| I79P | -10.5 |
| E174W | 14.2 |
| D97E | 107 |
| T73H | 81.1 |
| N149I | 22.4 |
| K116E | 21.8 |
| I172Y | 82.7 |
| K126Y | 86.2 |
| S87F | 5.55 |
| N22H | 85.7 |
| V100A | 87.6 |
| V62M | 69.4 |
| T1S | 80.9 |

Study 2 — target: CRIPT, C-terminal peptide; method: DHFR complementation, deep sequencing; matrix: yeast; reference: wild type; reading: higher = weaker binding
Setting: single substitutions, model-inferred values
Starting sequence: ERBIN, PDZ domain 1 (human); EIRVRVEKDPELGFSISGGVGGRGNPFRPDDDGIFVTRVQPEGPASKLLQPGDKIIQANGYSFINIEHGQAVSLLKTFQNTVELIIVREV; partner TKNYKQTSV
| Substitution | binding free energy change [kJ/mol] |
| --- | --- |
| D53W | 1.63 |
| E67Q | 0.591 |
| S73M | 0.182 |
| P44C | 1.99 |
| F27Q | 4.32 |
| R38K | 0.136 |
| I16Q | 0.769 |
| L75V | 3.47 |
| F78E | 0.371 |
| G69P | 2 |
| L84I | -0.79 |
| D9L | 1.68 |
| I2Y | 0.656 |
| P44Q | 1.22 |
| K76I | 1.38 |
| A58I | 6.43 |
| I55P | 2.94 |

Study 3 — method: RNA Bind-n-Seq; form: RNA; matrix: in vitro; tested at: not given; reference: input RNA pool; reading: higher = stronger binding
Target: RING finger protein unkempt homolog, zinc fingers 1-6, GST-SBP tag (UNK, Homo sapiens, UniProt Q9C0B0, residues 30-357)
Chain of UniProt Q9C0B0 (30-357, looked up): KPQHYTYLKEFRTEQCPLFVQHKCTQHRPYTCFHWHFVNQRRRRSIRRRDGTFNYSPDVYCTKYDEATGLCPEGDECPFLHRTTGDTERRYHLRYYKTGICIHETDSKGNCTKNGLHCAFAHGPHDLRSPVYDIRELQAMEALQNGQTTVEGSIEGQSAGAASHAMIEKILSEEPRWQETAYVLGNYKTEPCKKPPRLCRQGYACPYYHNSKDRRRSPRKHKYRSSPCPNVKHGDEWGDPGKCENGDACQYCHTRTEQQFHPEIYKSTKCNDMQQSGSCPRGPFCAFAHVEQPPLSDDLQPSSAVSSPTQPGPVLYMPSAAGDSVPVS
Setting: RNA with constant flanks, human-mouse chimeric sites, ends assumed
Shared flanks, not repeated: GGGAGUUCUACAGUCCGACGAUC … CAACAGAGGAUUGAGCAUCA
| Oligonucleotide | bound/input enrichment [ratio] |
| --- | --- |
| CUGGCCUGGCCCUCCCCUCUAGUGACCUUUCGUAUAGUCACUGCUUCUGCAUCAGAUACUUUCAGCUCCAAGUCCUGACUGGGUGGGGCACCCAUUUCAGGCAGAAGGUUUUGGUACCCU | 0.358 |
| ACCUCCCCCUCCCGCCUCACCCCACCCCCGCUUUUUGGAAAGUUUUUGGCGUUUCUUUUUUUUAGAAAUACAAAGUGAUUACAGUUUAGAGUCUAUGGGUCUAUCGAAGGGCUUGACGGA | 1.47 |
| ACUCAGAGAUCCACCUCCCAAAGUGCUCUGGAGCUCUGUGUGGCCACUCAAUUCUCCUUGAUGGAUAUAUAUUUUUUUUAAUAUGAAUCUUCCUGUUCGUCCAGGGAAGAAAGAUUUGUU | 0.633 |
| UCAUUUUUCUCUUUUCUGAUCGUCAGGUAGGAAAAGCCUAAAGAUUAGGUUGUAAGAAAAACAGAAGCCAUGUUUCGAAGACCUGUAUUACAGGUAUUUCGUCAGUUUGUAAGACAUGAG | 1.47 |
| CUGUGACCACAAGAUCCUACCUGAGUGGCAGCUGAAGUUGACUCCCUCCCCUUCCCUGAACCCCCCCCCACUGCCCCCCCAUCCCCCAGUGUCGGCUAUUCUCUGGUCUCUGCACGGUUC | 1.32 |
| CUGUGUGUGCUGAAUAAAUGGCUUGUAAAGAAGUUUUUCCAAGCUGUACCCAUGUACGUUAUUAUAGUUGCUGCAAAAUGUUCUUCCUGAUAUUGAUUUUAUUUGUUCUGACUCUCCCUC | 0.766 |
| GCAAGAGAUGAUGAGGCGGCAGCUGUUGCCCUUUCCUCUCUCGUUCAUGCUUUGGAUGAGUUAAACAUGGUCGCCAUCGUCCGAUAUGCUUAUGACAAAAGAGCUAAUCCUCAAGUUGGU | 0.116 |
| GUGACUGGUGUUAAGAUUUCCCCUCAGCAAAGAAGUGCAGUAGUCACCAUAAUUCCAUCUGUGGUGAAUGCCAAUCAGAUUGUGGAGCUGGUCCCAGACCUCAGUUUAGACAUGGGAACU | 0.257 |

Study 4 — target: BATF3, bZIP domain (human); method: DHFR protein complementation; matrix: yeast; reference: wild-type JUN-FOS pair; reading: higher = stronger binding
Setting: single substitutions, most at no-binding floor
Starting sequence: JUN, bZIP domain (human); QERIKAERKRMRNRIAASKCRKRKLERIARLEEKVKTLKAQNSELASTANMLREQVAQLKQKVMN; partner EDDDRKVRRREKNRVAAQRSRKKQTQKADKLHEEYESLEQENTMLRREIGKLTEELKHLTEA
| Substitution | binding fitness [natural log] |
| --- | --- |
| S47G | 0.221 |
| S47D | 0.278 |
| A46K | 0.255 |
| K34M | 0.223 |
| I28H | 0.299 |
| K39R | 0.287 |
| K36V | 0.247 |
| N42R | 0.134 |
| Q55E | 0.117 |
| Q41F | -1.01 |
| L31W | 0.226 |
| I28Q | 0.275 |
| E54Y | 0.193 |
| V35R | -0.0732 |
| I28D | 0.206 |
| E33K | 0.14 |
| M51L | 0.233 |

Study 5 — target: CCNA1, cyclin fold, Cln2 fusion (human); method: yeast growth competition, sequencing; matrix: yeast; setting: weak parent motif; reference: not given; reading: higher = stronger binding
Starting sequence: PKN2 docking peptide (human); VSAVRKLDFSDTM
| Substitution | normalised enrichment score |
| --- | --- |
| VSAVRKCDFSDTM [L7C] | 0.0744 |
| VDAVRKLDFSDTM [S2D] | 0.351 |
| VSAVRKLVFSDTM [D8V] | 0.506 |
| VSAVRKLDYSDTM [F9Y] | 0.485 |
| VSAVKKLDFSDTM [R5K] | 0.338 |
| VSAVRKLDASDTM [F9A] | 0.0384 |
| VSAVRGLDFSDTM [K6G] | 0.163 |
| VSAFRKLDFSDTM [V4F] | 0.892 |
| VSAVRKLDFSDIM [T12I] | 0.713 |
| VSAVRKLDMSDTM [F9M] | 0.471 |
| VSAVRQLDFSDTM [K6Q] | 0.648 |
| VSAVRKLDFMDTM [S10M] | 0.279 |
| VVAVRKLDFSDTM [S2V] | 0.583 |
| VSAVRKLDFSDQM [T12Q] | 0.96 |
| VSAVRKLDFRDTM [S10R] | 0.492 |
| VSKVRKLDFSDTM [A3K] | 0.328 |
| VSAVRFLDFSDTM [K6F] | 0.235 |
| VSAVRKKDFSDTM [L7K] | 0.0746 |
| VSAVRKLDFSSTM [D11S] | 1.03 |
| VSAVIKLDFSDTM [R5I] | 0.105 |
| VSAVRKWDFSDTM [L7W] | -0.0067 |
| VSAVRKLDFCDTM [S10C] | 0.761 |
| VSAVTKLDFSDTM [R5T] | 0.0554 |
| VSAVRKLDFSDPM [T12P] | 0.791 |
| VSAVRKLDVSDTM [F9V] | 0.0771 |

For quick reference, copied from above (study 1):
| Substitution | relative binding score [%] |
| --- | --- |
| T73H | 81.1 |
| K116E | 21.8 |
| N149I | 22.4 |
| E174W | 14.2 |
| T1S | 80.9 |
| N22H | 85.7 |
| S87F | 5.55 |
| I172Y | 82.7 |
